Assay results collected from several papers.
“And” joins repeats or separate records; there may be more than shown. Numbers after ± are the reported error.
WD repeat-containing protein 91 WD40 domain, residues 392–747: WD repeat-containing protein 91, WD40 domain, residues 392–747 (Homo sapiens, UniProt A4D1P6)
Genome polyprotein NS3 helicase domain: Genome polyprotein, NS3 helicase domain (Hepatitis C virus genotype 1b, UniProt Q9WMX2)
CALM1 Ca2+-bound C-lobe: Calmodulin-1, Ca2+-bound C-lobe (CALM1, Homo sapiens, UniProt P0DP23)
ESR1: Estrogen receptor (ESR1, Homo sapiens, UniProt P03372)
Sequence of UniProt P51575 (whole entry, unmodified, looked up): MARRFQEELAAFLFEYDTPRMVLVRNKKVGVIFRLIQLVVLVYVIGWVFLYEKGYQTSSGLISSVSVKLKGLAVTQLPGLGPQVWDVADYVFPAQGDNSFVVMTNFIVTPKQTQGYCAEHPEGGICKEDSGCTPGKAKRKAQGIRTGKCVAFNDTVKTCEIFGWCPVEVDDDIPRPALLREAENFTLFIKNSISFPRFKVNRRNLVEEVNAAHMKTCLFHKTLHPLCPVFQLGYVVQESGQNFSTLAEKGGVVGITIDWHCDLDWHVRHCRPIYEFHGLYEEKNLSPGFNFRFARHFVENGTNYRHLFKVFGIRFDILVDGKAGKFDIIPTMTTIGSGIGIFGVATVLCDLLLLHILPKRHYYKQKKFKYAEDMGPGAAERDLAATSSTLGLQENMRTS
Sequence of UniProt P19801 (whole entry, looked up): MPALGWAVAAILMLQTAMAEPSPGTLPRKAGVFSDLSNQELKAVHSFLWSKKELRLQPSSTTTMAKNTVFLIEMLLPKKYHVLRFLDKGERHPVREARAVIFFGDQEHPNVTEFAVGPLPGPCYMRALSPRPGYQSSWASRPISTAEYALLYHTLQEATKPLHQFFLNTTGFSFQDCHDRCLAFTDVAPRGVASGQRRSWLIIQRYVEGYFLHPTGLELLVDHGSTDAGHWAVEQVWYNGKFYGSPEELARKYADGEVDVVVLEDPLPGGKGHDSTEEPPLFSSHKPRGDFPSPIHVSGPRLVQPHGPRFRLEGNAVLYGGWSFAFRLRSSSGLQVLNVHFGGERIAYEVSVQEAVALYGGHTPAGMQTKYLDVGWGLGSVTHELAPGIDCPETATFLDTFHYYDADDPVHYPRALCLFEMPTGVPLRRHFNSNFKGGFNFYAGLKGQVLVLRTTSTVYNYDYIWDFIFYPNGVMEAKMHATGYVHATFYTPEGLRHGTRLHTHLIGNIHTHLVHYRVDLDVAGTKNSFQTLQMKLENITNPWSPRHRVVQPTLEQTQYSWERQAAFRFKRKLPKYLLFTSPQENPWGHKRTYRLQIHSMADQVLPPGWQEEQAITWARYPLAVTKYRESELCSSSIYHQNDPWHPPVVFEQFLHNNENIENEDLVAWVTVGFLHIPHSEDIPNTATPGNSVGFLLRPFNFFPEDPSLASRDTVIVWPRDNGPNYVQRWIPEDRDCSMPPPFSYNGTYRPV
Sequence of UniProt P03372 (whole entry, looked up): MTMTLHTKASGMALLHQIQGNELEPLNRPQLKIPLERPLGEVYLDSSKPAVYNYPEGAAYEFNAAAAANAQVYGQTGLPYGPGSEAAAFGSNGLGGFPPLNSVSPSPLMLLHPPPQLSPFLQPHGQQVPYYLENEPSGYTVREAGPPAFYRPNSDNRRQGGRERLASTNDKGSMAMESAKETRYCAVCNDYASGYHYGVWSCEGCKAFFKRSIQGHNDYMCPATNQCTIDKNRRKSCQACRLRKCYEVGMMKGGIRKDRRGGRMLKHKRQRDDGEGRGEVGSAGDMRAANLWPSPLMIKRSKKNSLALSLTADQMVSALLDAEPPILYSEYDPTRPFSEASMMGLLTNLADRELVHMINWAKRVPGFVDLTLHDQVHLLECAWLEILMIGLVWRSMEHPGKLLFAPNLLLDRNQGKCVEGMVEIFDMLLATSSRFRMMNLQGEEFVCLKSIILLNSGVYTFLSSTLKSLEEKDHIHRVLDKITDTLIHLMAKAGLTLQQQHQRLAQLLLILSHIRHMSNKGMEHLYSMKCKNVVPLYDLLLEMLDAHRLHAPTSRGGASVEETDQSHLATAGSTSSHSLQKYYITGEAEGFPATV
Sequence of UniProt Q93015 (whole entry, looked up): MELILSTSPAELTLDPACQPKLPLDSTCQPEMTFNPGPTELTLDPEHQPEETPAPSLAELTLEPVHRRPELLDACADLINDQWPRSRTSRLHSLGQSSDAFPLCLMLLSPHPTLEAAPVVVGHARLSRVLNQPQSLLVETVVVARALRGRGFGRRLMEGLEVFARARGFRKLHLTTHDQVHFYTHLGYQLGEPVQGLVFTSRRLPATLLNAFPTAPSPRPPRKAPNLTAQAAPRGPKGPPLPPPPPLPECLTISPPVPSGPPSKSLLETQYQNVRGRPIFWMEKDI

SMILES	target	assay	system	setting	scale	endpoint	value
C=CC(=O)Nc1cc(S(=O)(=O)N(C)C)ccc1Cl	14-3-3 protein sigma, with ERα phosphopeptide (SFN, Homo sapiens, UniProt P31947)	binding, fluorescence polarization		covalent ligand screen, added: phosphorylated ERalpha peptide	baseline: control	FP signal	110%
COc1c(C#N)cccc1CC(=O)Nc1ccc(N2CCc3sccc3C2)cc1	WD repeat-containing protein 91 WD40 domain, residues 392–747	SPR		45 µM		binding	-9% and 3%
CCC1(O)CCCN(C(=O)c2ccc(-c3ccc(F)c(NC(=O)CCl)c3)cc2)C1 (centres unmarked)	DNA dC->dU-editing enzyme APOBEC-3A (Homo sapiens, UniProt P31941)	covalent modifier, intact protein mass spectrometry, item: adduct +26691 Da		125 µM, 3 h, 5-fold molar excess		protein adduct	0%
Cl.Cl.Cl.Ic1ccc(N2CCN(Cc3c[nH]c4ncccc34)CC2)cc1	Genome polyprotein NS3 helicase domain	DNA binding, inhibitor	hepatitis C virus	100 µM, added: Cy5-dT15 DNA		inhibition	6%
Nc1ncnc2c1ncn2[C@@H]1O[C@H](C[C@@H](N)CC[C@H](N)C(=O)O)[C@@H](O)[C@H]1O	O-methyltransferase (Sorghum bicolor, UniProt A0A1B6PFV1)	isothermal titration calorimetry		concentration not given, apo protein		ΔH of binding	-12.7 ± 0.284 kcal/mol
CCOC(=O)CCCN	N-alpha-acetyltransferase 80 (NAA80, Homo sapiens, UniProt Q93015)	substrate, DTNB		2 mM, 30 min, 37 °C, added: acetyl-CoA 500 µM		product formation	0.66 µM
C=CC(=O)N1CCC(C(=O)NCC(=O)N2CCN(c3nc(-c4cnc(N)nc4C(F)F)nc(N4CCOCC4)n3)CC2)CC1	Citron Rho-interacting kinase (CIT, Homo sapiens, UniProt O14578)	KINOMEscan		1 µM		remaining binding	100%
Nc1ncnc2c1ncn2[C@@H]1O[C@H](COP(=O)(O)CP(=O)(O)OP(=O)(O)O)[C@@H](O)[C@H]1O	P2X purinoceptor 1 (P2RX1, Homo sapiens, UniProt P51575, D170A)	saturation binding	HEK293	13 nM		specific binding	78.5 CCPM and 82 CCPM and 62 CCPM
O=C(Nc1ccc(F)cc1)Nc1cccc2c1CCN(C(=O)c1cc3cccn3cn1)C2	WD repeat-containing protein 91 WD40 domain, residues 392–747	binding, SPR single-concentration screen		45 µM		SPR response	-5.6 RU and -19 RU
Cc1cc(-n2c(-c3ccccc3Cl)nc3c(N4CCC(NS(=O)(=O)c5ccc(F)c(F)c5)CC4)ncnc32)no1	Cannabinoid receptor 1 (CNR1, Homo sapiens, UniProt P21554)	binding, [3H]CP55940 displacement			baseline: Ki CB2 over Ki CB1	selectivity ratio	> 20
CC[C@H](C)[C@H](NC(=O)[C@H](CCCCN)NC(=O)CNC(=O)[C@@H](NC(=O)[C@@H](NC(=O)[C@H](CCSC)NC(=O)[C@H](Cc1c[nH]cn1)NC(=O)CN)[C@@H](C)O)C(C)C)C(=O)N[C@@H](Cc1ccc(O)cc1)C(=O)N[C@@H](C)C(=O)N[C@@H](C)C(=O)N[C@@H](CCSC)C(=O)N[C@@H](CCSC)C(=O)N[C@H](C(=O)N[C@@H](CCSC)C(=O)N[C@@H](CCC(=O)O)C(=O)N[C@@H](Cc1ccc(O)cc1)C(=O)N[C@@H](Cc1ccc(O)cc1)C(=O)N[C@@H](CCCNC(=N)N)C(=O)N[C@@H](CCC(N)=O)C(=O)N[C@@H](CO)C(=O)N[C@@H](CCCCN)C(=O)N[C@@H](C)C(=O)N[C@@H](CCCCN)C(=O)N[C@@H](CCCCN)C(=O)N[C@@H](CC(C)C)C(=O)N[C@@H](CCC(N)=O)C(=O)N[C@@H](C)C(=O)N[C@@H](CCSC)C(=O)N[C@@H](CCCNC(=N)N)C(=O)O)[C@@H](C)CC	CALM1 Ca2+-bound C-lobe	binding, isothermal titration calorimetry		pH 7.4, 15 °C, C-lobe, CaV2.1 IQ domain, added: Ca2+		ΔS	23.4 ± 1 cal/mol/K
CC(C)(C)c1cc(/C=C(\C#N)C(N)=S)cc(C(C)(C)C)c1O	Genome polyprotein NS3 helicase domain	DNA binding, inhibitor	hepatitis C virus	100 µM, added: Cy5-dT15 DNA		inhibition	5%
CC1(C)CC2(C)OC(=O)NC2(C)c2ccccc21 (centres unmarked)	WD repeat-containing protein 91 (Homo sapiens, UniProt A4D1P6)	binding, affinity selection mass spectrometry			baseline: other proteins in batch	log fold enrichment	0.215
CN(C)C/C=C(/c1ccc(Br)cc1)c1cccnc1	Genome polyprotein NS3 helicase domain	DNA binding, inhibitor	hepatitis C virus	100 µM, added: Cy5-dT15 DNA		inhibition	1%
O=c1nc(SCc2cc(F)cc(C(F)(F)F)c2)nc(SCc2ccc3sccc3c2)[nH]1	DNA topoisomerase 2-alpha (TOP2A, Homo sapiens, UniProt P11388)	ATPase activity		15.6 µM, added: ATP 0.075 mM		ATP hydrolysis rate	0.29 µM/min and 0.218 µM/min
CC1=C(/C=C/C(C)=C/C=C/C(C)=C/C=C/C=C(C)/C=C/C=C(C)/C=C/C2=C(C)CCCC2(C)C)C(C)(C)CCC1	Beta-lactoglobulin (LGB, Bos taurus, UniProt P02754)	isothermal titration calorimetry		concentration not given		binding stoichiometry	1
CC(C)NCC(O)COc1cccc2ccccc12 (centres unmarked)	Glutamate receptor 2 (Homo sapiens, UniProt P42262)	ion current, negative allosteric modulator, SyncroPatch patch clamp	HEK293	10 µM		inhibition	1%
COc1ccc(-c2cncc(C(=O)N[C@@H]3CCc4c(C#N)cccc43)c2)c(C)c1	WD repeat-containing protein 91, residues 392–747 (Homo sapiens, UniProt A4D1P6)	SPR dose-response titration		concentration not given, 1:1 binding model		binding	73%
COc1cc(/C=C/C(=O)/C=C/c2ccc(O)c(OC)c2)ccc1O	haemin	binding, isothermal titration calorimetry		pH 7.4, 37 °C		ΔS	-202 ± 4.03 J/(mol·K)
COc1c(-c2ccccc2)oc2cc(O)cc(O)c2c1=O	ESR1	array formation	PRL-HeLa		baseline: EC50 ERβ over EC50 ERα	selectivity ratio	0.77
CC(C)c1cccc(C(C)C)c1N1C(=O)c2ccc(O)cc2C1=O	Genome polyprotein NS3 helicase domain	DNA binding, inhibitor	hepatitis C virus	100 µM, added: Cy5-dT15 DNA		inhibition	0%
O=C(COP(=O)(O)O)[C@@H](O)[C@H](O)[C@H](O)COP(=O)(O)O	SEC23-interacting protein (Homo sapiens, UniProt Q9Y6Y8)	thermal proteome profiling, item: SEC23IP	HepG2 cell lysate	concentration not given, 57 over 37 °C, mean	baseline: compound over control	thermal stability ratio	0.441
Cc1cc(NC(=O)c2cccc(NC(=O)/C=C/CN(C)C)c2)ccc1Nc1nccc(-c2cccnc2)n1	Mitogen-activated protein kinase 9 (MAPK9, Homo sapiens, UniProt P45984)	enzyme activity, inhibitor		0.0007527 µM, unit not given	baseline: vehicle	remaining activity	0.959
NCc1ccccc1	Diamine oxidase [copper-containing] (AOC1, Homo sapiens, UniProt P19801)	substrate turnover, DAO oxidation		concentration not given, unit not given	baseline: DMSO control	enzyme activity	4.59 and 5.03 and 4.89 and 5.08 and 4.98 and 4.51 and 5.14 and 4.6
CCNC(=O)[C@H]1O[C@@H](n2cnc3c(N)nc(NCCc4ccc(CCC(=O)O)cc4)nc32)[C@H](O)[C@@H]1O.Cl	Genome polyprotein NS3 helicase domain	DNA binding, inhibitor	hepatitis C virus	100 µM, added: Cy5-dT15 DNA		inhibition	0%
COc1c(O[C@@H]2O[C@H](CO)[C@@H](O)[C@H](O)[C@H]2O)cc2occ(-c3ccc(O)cc3)c(=O)c2c1O	ESR1	array formation	PRL-HeLa		baseline: EC50 ERβ over EC50 ERα	selectivity ratio	28.4
CCCCC[C@H](O)/C=C/[C@H]1[C@H](O)CC(=O)[C@@H]1C/C=C\CCCC(=O)O	Prostaglandin E2 receptor EP1 subtype (PTGER1, Homo sapiens, UniProt P34995, S306A)	IP1 accumulation, agonist	AD293	1 h, EP1 S306A mutant		Emax	98.8 ± 4.99%
CC[C@H](C)[C@H](NC(=O)[C@H](CCCCN)NC(=O)CNC(=O)[C@@H](NC(=O)[C@@H](NC(=O)[C@H](CCSC)NC(=O)[C@H](Cc1c[nH]cn1)NC(=O)CN)[C@@H](C)O)C(C)C)C(=O)N[C@@H](Cc1ccc(O)cc1)C(=O)N[C@@H](C)C(=O)N[C@@H](C)C(=O)N[C@@H](CCSC)C(=O)N[C@@H](CCSC)C(=O)N[C@H](C(=O)N[C@@H](CCSC)C(=O)N[C@@H](CCC(=O)O)C(=O)N[C@@H](C)C(=O)N[C@@H](Cc1ccc(O)cc1)C(=O)N[C@@H](CCCNC(=N)N)C(=O)N[C@@H](CCC(N)=O)C(=O)N[C@@H](CO)C(=O)N[C@@H](CCCCN)C(=O)N[C@@H](C)C(=O)N[C@@H](CCCCN)C(=O)N[C@@H](CCCCN)C(=O)N[C@@H](CC(C)C)C(=O)N[C@@H](CCC(N)=O)C(=O)N[C@@H](C)C(=O)N[C@@H](CCSC)C(=O)N[C@@H](CCCNC(=N)N)C(=O)O)[C@@H](C)CC	CALM1 Ca2+-bound C-lobe	binding, isothermal titration calorimetry		pH 7.4, 15 °C, Ca2+-bound C-lobe, added: CaV2.1 IQ peptide		stoichiometry	1.07 ± 0.08
O=C1CC[C@H](N2Cc3c(ccc4c3OCC43CCN(C[C@@H]4CCC5(CCN(c6ccc([C@@H]7c8ccc(O)cc8CC[C@@H]7c7ccccc7)cc6)CC5)OC4)CC3)C2=O)C(=O)N1	ESR1	degrader, Western blot	T47D	4 h		concentration significantly reducing ER	3 nM

A few entries again:
SMILES	target	assay	system	setting	scale	endpoint	value
CC(C)NCC(O)COc1cccc2ccccc12 (centres unmarked)	Glutamate receptor 2 (Homo sapiens, UniProt P42262)	ion current, negative allosteric modulator, SyncroPatch patch clamp	HEK293	10 µM		inhibition	1%
CCC1(O)CCCN(C(=O)c2ccc(-c3ccc(F)c(NC(=O)CCl)c3)cc2)C1 (centres unmarked)	DNA dC->dU-editing enzyme APOBEC-3A (Homo sapiens, UniProt P31941)	covalent modifier, intact protein mass spectrometry, item: adduct +26691 Da		125 µM, 3 h, 5-fold molar excess		protein adduct	0%
COc1c(O[C@@H]2O[C@H](CO)[C@@H](O)[C@H](O)[C@H]2O)cc2occ(-c3ccc(O)cc3)c(=O)c2c1O	ESR1	array formation	PRL-HeLa		baseline: EC50 ERβ over EC50 ERα	selectivity ratio	28.4
COc1c(C#N)cccc1CC(=O)Nc1ccc(N2CCc3sccc3C2)cc1	WD repeat-containing protein 91 WD40 domain, residues 392–747	SPR		45 µM		binding	-9% and 3%
C=CC(=O)N1CCC(C(=O)NCC(=O)N2CCN(c3nc(-c4cnc(N)nc4C(F)F)nc(N4CCOCC4)n3)CC2)CC1	Citron Rho-interacting kinase (CIT, Homo sapiens, UniProt O14578)	KINOMEscan		1 µM		remaining binding	100%
